Experimental data gathered from unrelated publications.
Protocols differ between the studies behind these lines. Values joined by “and” are separate records of one study, mostly repeats; a detail may differ. ± gives the spread as reported.

For Cn1nc2c(=O)n(C3CC3)ncc2c1[C@](O)(c1cnc(C(F)(F)F)c(Cl)c1)C(F)(F)F, the CLint,u was 91.2 mL/min/kg (rat Sprague-Dawley male, blood; intravenous, 1 mg/kg).
Cc1cc(NC2CCN(C(=O)OC3CCN(C(=O)/C=C/CN(C)C)C3)CC2)n2ncc(C(C)C)c2n1 (stereo not drawn) — result for “patients with adverse event”: 18% (Phase I dose escalation CTCAE v4.0, measured: ALT increased; patients with advanced solid tumours; dose not given, TIW dosing any grade).
OC[C@H]1OC(O)[C@H](O)[C@@H](O)[C@@H]1O (stereo partly drawn) gave an osmolality of 7 mOsmol/kg (aqueous solution; 10 mM, together with: glucosamine).
With CO[C@H]1C[C@@H]2CC[C@@H](C)[C@@](O)(O2)C(=O)C(=O)N2CCCC[C@H]2C(=O)O[C@H]([C@H](C)C[C@@H]2CC[C@@H](O)[C@H](OC)C2)CC(=O)[C@H](C)/C=C(\C)[C@@H](O)[C@@H](OC)C(=O)[C@H](C)C[C@H](C)/C=C/C=C/C=C/1C the rectal temperature was 37.1 ± 0.4 °C (healthy adult horses; intravenous, 0.06 mg/kg, 48 h).
Cc1cc2sc(N)nc2c2cccnc12 has a Tlast of 24 h (female BALB/c mice, plasma; i.p., 30 mg/kg).
For COc1ccc2c(=O)n(C)c(-c3ccccc3)nc2c1, the tissue/plasma ratio was 203 (Sprague-Dawley rat, male, large intestine; oral, 30 mg/kg, 2 h; reference: large intestine over plasma).
The blood HDW of CCc1cc(C(=O)NC)c2nccc(N3CCc4c(cc(Cn5ccnc5)cc4-c4cn(C)nc4C(F)(F)F)C3=O)c2c1 is reported as 22.8 ± 0.76 g/L (Sprague Dawley rats; oral, 100 mg/kg twice daily, 7 days).
Cc1ccc([C@@H]2O[C@H](CO)[C@@H](O)[C@H](O)[C@H]2O)cc1Cc1ccc(-c2ccc(F)cc2)s1: “urinary potassium excretion change” -0.195 mEq (Japanese type 2 diabetes patients; 25 mg, day 5, 24 h urine collection; reference: baseline).
Cc1cccc(Cn2cc(CO)c3cnccc32)c1 gave an AST of 113 U/L (male F344 rat, serum; oral, 100 mg/kg/day, 2 days).
O=C(Nc1nc2cccc(-c3ccc(CN4CCS(=O)(=O)CC4)cc3)n2n1)C1CC1: “treatment-emergent adverse events” 0% (measured: pain in extremity; human rheumatoid arthritis patients; oral, 75 mg once daily, 4 weeks, regardless of relatedness).
Under “subjects with treatment-related adverse event”, CN1CCN(c2cccc3c2CCN(C(=O)/C=C/c2c(-n4cnnn4)ccc(Cl)c2F)[C@@H]3C(=O)Nc2ccc(C(=O)O)cc2)C(=O)C1 is recorded as 0% (healthy human subjects; intravenous infusion, 1 mg/h, 5 days).
For Cc1nc(C(=O)N2CCC[C@H]2C(=O)N[C@@H](CCC2CCCCC2)C(=O)N[C@@H](CC(C)C)C(=O)NC(C)(C)C(=O)N[C@@H](CC(C)C)C(=O)N[C@@H](CC(C)C)C(=O)NC(C)(C)C(=O)NC(C)(C)C(=O)NCCC(=O)NC2(CN(C)C)CCC2)co1, the alpha-helix content was 26.2% (circular dichroism; phosphate buffer; pH 7.4, 20 °C).
For Cc1cc(NC(=O)c2cccc(NC(=O)/C=C/CN(C)C)c2)ccc1Nc1nccc(-c2cccnc2)n1, the compound remaining was 62.3% (metabolic stability; Wistar rat, male, primary hepatocytes; 1 µM, 90 min).
O=C(COc1ccc(Cl)cc1)NC12CC(c3nnc([C@H]4C[C@@H](OC(F)(F)F)C4)o3)(C1)C2 has a steady-state Ctrough of 1.54 µM (healthy human both sexes, plasma; oral, 45 mg once daily, day 14, mean).
With Cn1ncnc1[C@H]1c2n[nH]c(=O)c3cc(F)cc(c23)N[C@@H]1c1ccc(F)cc1 the accumulation half-life was 2.13 days (human patients, plasma; oral, 600 µg/m2, dose level DL4, median, together with: temozolomide 30 mg/m2 daily days 2-6).
COc1ccc([C@@H](O)c2cc(-c3ncnc4cc(N5CCOCC5)ccc34)c(F)cc2Cl)nn1 — result for “gastrointestinal disorder TEAE”: 100% (locally advanced rectal cancer patients; 150 mg, together with: capecitabine and radiotherapy).
For CC1(CNC(=O)[C@H](CN)NC(=O)c2ccc(-c3ccc(Br)cc3)cc2)NC(=O)NC1=O (stereo partly drawn), the logP was 0.61 (octanol/buffer; pH 11).
For CCO[C@H]1CCN(Cc2c(OC)cc(C)c3[nH]ccc23)[C@H](c2ccc(C(=O)O)cc2)C1, the unbound AUClast was 5970 ng·h/mL (human mild hepatic impairment, plasma; oral, 200 mg single dose, mean).
COc1cc(Nc2ncc3c(n2)-c2ccc(Cl)cc2C(c2c(F)cccc2OC)=NC3)ccc1C(=O)O: “patients with adverse event” 13% (measured: Hyperkalemia, all grades; cancer patients, phase 1/2; oral, dose not given, together with: pembrolizumab).
CC(=O)c1ccc([C@H]2C[C@@]3(C)[C@@H](CC[C@@]3(O)C(F)(F)C(F)(F)F)[C@@H]3CCC4=CC(=O)CCC4=C32)cc1 gave a serum concentration of 5.6 ng/mL (human, pooled serum; oral, 200 mg, day 1, 24 h).
CNCc1ccc(-c2[nH]c3cc(F)cc4c3c2CCNC4=O)cc1 — result for “decreased appetite incidence”: 33.3% (patients; oral, 840 mg twice daily, all grades).
For CNC(=O)c1ccc(-c2cnc3ncc(Cc4ccc5ncccc5c4)n3n2)cc1F, “ALT increased dose reduction/interruption” read 2% (Japanese patients; oral, 400 mg, grade 3/4).
For O=S(=O)(NCc1ccccn1)c1cc(Cl)c(Cl)cc1Cl, the logP was 2.01 (octanol/buffer; pH 11, known kinase inactives set).
Cn1cnc2c(F)c(Nc3ccc(Br)cc3Cl)c(C(=O)NOCCO)cc21 — result for “zero-order absorption duration”: 4.73 h (population PK model; human, plasma; oral, sequential zero-first-order absorption, fed).
Under “accumulation ratio Cmax”, CC(C)(C(=O)N1CCOc2c(C#N)cncc2C1)C(F)F is recorded as 1 (human, both sexes, plasma; oral, 10 mg once daily, 14 days, multiple ascending dose; reference: day 14 over day 1).
NC1(C(=O)N[C@@H](CCO)c2ccc(Cl)cc2)CCN(c2nc[nH]c3nccc2-3)CC1 gave a dose-normalised Cmax of 225 ng/mL and 408 ng/mL and 479 ng/mL (human, plasma; oral, 320 mg twice daily, together with: enzalutamide 160 mg daily).
For NC(=O)c1cnc2[nH]ccc2c1N[C@@H]1[C@@H]2CC3C[C@H]1C[C@@](O)(C3)C2, “zero-order absorption duration” read 1.29 h (healthy human volunteers, plasma; oral, population PK model, bootstrap median).
O=C1CCc2ccc(OCCCCN3CCN(c4cccc(Cl)c4Cl)CC3)cc2N1: “gastrointestinal symptom frequency” 8.5% (CYP2D6 intermediate metabolizers; concentration not given, genotype-based phenotype, long-acting oral or depot).
For CCn1cc(C(=O)N2CCOCC2)c(=O)c2cc(NC3Cc4ccccc4C3)cnc21, the half-life was 4.38 h (human, fasted, plasma; oral, 900 mg single dose, tablet, arithmetic mean).
For CCN1/C(=C/C(C)=O)Sc2ccc(F)cc21, “diastolic blood pressure” read 75 ± 3 mmHg (cynomolgus monkey; oral, 30 mg/kg, 24 h post-dose).
C[C@H](Oc1ccc(Br)cc1-c1ccon1)C(=O)O — result for “accumulation ratio (AUC)”: 0.918 (human, plasma; 200 mg once daily, day 10; reference: day 1).
The logP of CCCC(=O)Nc1cc(C2CC2)[nH]n1 is reported as 1.68 (octanol/buffer; pH 11).
CN(CC#N)C(=O)C[C@H](Nc1nc2ccccc2[nH]1)c1cccc(C(F)(F)F)c1 — result for “steady-state volume of distribution”: 41.2 ± 5.59 L (human; intravenous infusion, 1.5 mg/kg, 1 mg/mL formulation).
O=C(/C=C/CCc1ccc(O)cc1)/C=C/c1ccc(O)cc1 gave a body weight of 19.9 ± 0.76 g (nude mouse MCF7 xenograft; 20 mg/kg, day 0).
The zeta potential of CCCCCCCCCCCOC(=O)CCCCCN(CCO)CCCCCCCC(=O)OC(CCCCCCCC)CCCCCCCC is reported as -0.31 mV (pH 7.5, formulated).
For O=C(Cc1ccc(OC(F)(F)F)cc1)Nc1cc(C2CC2)[nH]n1, the logP was 3.77 (octanol/buffer; pH 11).
For Cc1cc(Nc2ncnc3ccc(NC4=NC(C)(C)CO4)cc23)ccc1Oc1ccn2ncnc2c1, “AUC(0-inf), geometric mean” read 2030 ng·h/mL (human, plasma; oral, 300 mg, day 1, single dose alone).
CC(C)n1c(Nc2cccnc2)nc2cnc(Nc3ccc(N4CCN(C)CC4)cc3)nc21: “subjects with adverse event” 0% (measured: LDL cholesterol increased; healthy male subjects; oral, 100 mg, study, together with: itraconazole).
The Cmax of CO[C@H]1C[C@@H]2CC[C@@H](C)[C@@](O)(O2)C(=O)C(=O)N2CCCC[C@H]2C(=O)O[C@H]([C@H](C)C[C@@H]2CC[C@@H](OC(=O)NCCOCCOCCOCCOCCOCCOCCOCCOCCC(=O)N3CCc4cc(Cn5nc(-c6ccc7oc(N)nc7c6)c6c(N)ncnc65)ccc4C3)[C@H](OC)C2)C[C@@H](O)[C@H](C)/C=C(\C)[C@@H](O)[C@@H](OC)C(=O)[C@H](C)C[C@H](C)/C=C/C=C/C=C/1C is reported as 263 ng/mL (human, plasma; intravenous, 8 mg, cycle 1 day 1, arithmetic mean).
The logP of Cc1nc(C)c(-c2ccnc(Nc3ccc(N(C)C)c(Cl)c3)n2)s1 is reported as 4.3 (octanol/buffer; pH 11).
With COc1cc(CCC(=O)O)ccc1O[C@@H]1O[C@H](C(=O)O)[C@@H](O)[C@H](O)[C@H]1O the CSF concentration was 1.7 nM (human, cerebrospinal fluid; concentration not given, median).
For C=CC(=O)Nc1cc(Nc2nccc(-c3cn(C)c4ccccc34)n2)c(OC)cc1N(C)CCN(C)C, the recovery was 98.1% (storage stability; human dried blood spot; 2 h, on ice, LQC level).
For COc1cccc(OC)c1NS(=O)(=O)c1ccc(N/C=C2\C(=O)Nc3ccc4ncsc4c32)cc1, the logP was 2.69 (octanol/buffer; pH 11).
For Oc1cccc(O)c1O, “detection in serum” read “not detected” (broiler chickens, serum; oral, in feed, 2000 mg/kg feed, chestnut tannin diet).
For CC(=O)O[C@H]1C(=O)[C@@]2(C)[C@H]([C@H](OC(=O)c3ccccc3)[C@]3(O)C[C@H](OC(=O)[C@H](O)[C@@H](NC(=O)c4ccccc4)c4ccccc4)C(C)=C1C3(C)C)[C@]1(OC(C)=O)CO[C@@H]1C[C@@H]2O, “adverse event incidence” read 0% (measured: decreased appetite; patients with advanced solid tumours; intravenous, dose not given, grade 3 and 4, possibly related to drug).
The SHBG level of N#Cc1ccc2c(c1)[C@H]1CCCN(C(=O)c3ccc4[nH]cnc4c3)[C@H]1C2 is reported as 33.2 nmol/L (human males; 80 mg, day 7).
The accumulation ratio of Cc1ncnc2c1ccn2[C@@H]1C[C@H](Oc2cc(C(F)F)c(F)c3c2CNCC3)[C@@H](O)[C@H]1O is reported as 3.77 and 2.83 (human; oral, 4 mg twice daily; reference: AUC(tau) multiple over single dose).
For Cc1nc2cccc(OCC(C)(C)C(=O)NC(C)C)c2c(N)c1C(=O)O, “Cmax ratio female over male” read 2.01 ± 0.75 (Sprague-Dawley rat, plasma; oral, 10 mg/kg, day 7, 7-day repeated dosing; reference: female over male).
Cn1c(COc2cccc3cccnc23)nnc1SCC(N)=O has a logP of 0.6 (octanol/buffer; pH 11, known kinase inactives set).
OC[C@H]1O[C@@H](c2ccc(F)c(Cc3cc4ccccc4s3)c2)[C@H](O)[C@@H](O)[C@@H]1O: “hypoglycaemia-related adverse event” 6% (Japanese patients, type 1 diabetes; oral, 50 mg/day, onset day 4; reference: patients).
Cc1c(C(=O)O)ccc2c3n(nc12)[C@@H]1[C@H](C3)N(CC2CC2)[C@@]2(C(=O)Nc3cc(Cl)ccc32)[C@H]1c1cccc(Cl)c1F — result for “adverse event incidence”: 20% (phase Ia trial, measured: Headache; cancer patients; oral, dose not given).
For Cc1cnc(N2CC3(CCOCC3)C2)c(C(=O)Nc2ccc(C(=O)N3CCc4cc(C(=O)Nc5c(C)cccc5F)sc4-c4ccccc43)cc2)c1, the residence time was at most 120 h (neonatal rat, lung; inhaled, dose not given).
Cc1cc(-c2nccc3c2ccn3CC(=O)Nc2ccc(-c3cnccn3)cn2)ccn1 gave an accumulation ratio of 1.93 (measured: AUCtau; human, plasma; oral, 20 mg once daily; reference: day 16 over day 1).
CCCCC1=NC2(CCCC2)C(=O)N1Cc1ccc(-c2ccccc2S(=O)(=O)Nc2noc(C)c2C)c(COCC)c1 gave a Cmax of 1350 ng/mL (healthy adult volunteers, plasma; oral, 50 mg, single dose, fed, crushed tablet).
C=CC(=O)Nc1cc(Nc2nccc(Nc3cc(Cl)c(F)cc3C(C)(C)O)n2)c(OC)cc1N1CC[C@@H](N(C)C)C1 gave a Css,max of 68.4 ng/mL (human patients, plasma; oral, 50 mg daily, cycle 2 day 1, geometric mean).
Nc1ncn([C@H]2C[C@H](O)[C@@H](CO)O2)c(=O)n1 — result for “mean deviation from nominal”: -3.32% (processed mouse plasma; 80 ng/mL, 12 h, 4 °C, autosampler stability).
For N#C[C@@]12C[C@@H]1[C@@H](n1cnc3c(N[C@@H](C4CCC4)C4CC4)nc(I)nc31)[C@H](O)[C@@H]2O, “elimination rate constant” read 8.75e-05 s⁻¹ (Wistar rats male, plasma; oral, 1.0 mg/kg).

A few entries again:
Under “subjects with treatment-related adverse event”, CN1CCN(c2cccc3c2CCN(C(=O)/C=C/c2c(-n4cnnn4)ccc(Cl)c2F)[C@@H]3C(=O)Nc2ccc(C(=O)O)cc2)C(=O)C1 is recorded as 0% (healthy human subjects; intravenous infusion, 1 mg/h, 5 days).
With Cn1ncnc1[C@H]1c2n[nH]c(=O)c3cc(F)cc(c23)N[C@@H]1c1ccc(F)cc1 the accumulation half-life was 2.13 days (human patients, plasma; oral, 600 µg/m2, dose level DL4, median, together with: temozolomide 30 mg/m2 daily days 2-6).
For Cc1nc(C(=O)N2CCC[C@H]2C(=O)N[C@@H](CCC2CCCCC2)C(=O)N[C@@H](CC(C)C)C(=O)NC(C)(C)C(=O)N[C@@H](CC(C)C)C(=O)N[C@@H](CC(C)C)C(=O)NC(C)(C)C(=O)NC(C)(C)C(=O)NCCC(=O)NC2(CN(C)C)CCC2)co1, the alpha-helix content was 26.2% (circular dichroism; phosphate buffer; pH 7.4, 20 °C).
For COc1ccc2c(=O)n(C)c(-c3ccccc3)nc2c1, the tissue/plasma ratio was 203 (Sprague-Dawley rat, male, large intestine; oral, 30 mg/kg, 2 h; reference: large intestine over plasma).
For O=C(Cc1ccc(OC(F)(F)F)cc1)Nc1cc(C2CC2)[nH]n1, the logP was 3.77 (octanol/buffer; pH 11).
Under “accumulation ratio Cmax”, CC(C)(C(=O)N1CCOc2c(C#N)cncc2C1)C(F)F is recorded as 1 (human, both sexes, plasma; oral, 10 mg once daily, 14 days, multiple ascending dose; reference: day 14 over day 1).
